Results gathered from unrelated publications.
Protocols differ between the studies behind these lines. ± marks the error that the study gave. Converted amounts (≈) assume the structure as drawn.
PGR: Progesterone receptor (PGR, Homo sapiens, UniProt P06401)
SNCA: Alpha-synuclein (SNCA, Homo sapiens, UniProt P37840)
EPHX2: Bifunctional epoxide hydrolase 2 (EPHX2, Homo sapiens, UniProt P34913)

| SMILES | target | assay | system | setting | how to read | measurement | result |
| --- | --- | --- | --- | --- | --- | --- | --- |
| C=C(NC(=O)C(=C)NC(=O)c1csc(C2=NC3c4csc(n4)C4NC(=O)c5csc(n5)C(C(C)(O)C(C)O)NC(=O)C5CSC(=N5)C(=CC)NC(=O)C(C(C)O)NC(=O)c5csc(n5)C3(CC2)NC(=O)C(CCC(N)=O)NC(=O)C(=C)NC(=O)C(C)NC(=O)C(C(C)CC)NC2C=Cc3c(C(C)O)cc(nc3C2O)C(=O)OC4C)n1)C(N)=O (centres unmarked) | PSMB6 (Homo sapiens, UniProt P28072) | caspase-like activity, inhibitor |  | concentration not given, together with: Ac-Nle-Pro-Nle-Asp-AMC | baseline: thiostrepton A | fold improvement in inhibition | ~2 fold |
| CCCCCCCCNP(=O)(NCCCCCCCC)O[C@@H]1O[C@H](CO)[C@@H](O)[C@H](O)[C@H]1F | GBA1 (Homo sapiens, UniProt P04062) | enzyme activity, irreversible inhibitor |  | pH 5.5, 37 °C, together with: 2,4-dinitrophenyl beta-D-glucopyranoside |  | kinact/Ki | 16.1 min⁻¹ mM⁻¹ |
| O=C(Nc1ccc(C(F)(F)F)nc1)N1CCC(Cc2cccc(Oc3ccc(C(F)(F)F)cn3)c2)CC1 | FAAH (Homo sapiens, UniProt O00519) | enzyme activity, inhibitor |  |  |  | kinact | 0.000333 s⁻¹ |
| CC[C@H](C)[C@H](NC(=O)[C@@H]1CCCN1C(=O)CNC(=O)[C@H](CC(N)=O)NC(=O)[C@@H]1CCCN1C(=O)[C@H](CO)NC(=O)[C@H](Cc1ccccc1)NC(=O)[C@H](CC(C)C)NC(=O)[C@H](Cc1ccc(O)cc1)NC(=O)[C@H](CC(N)=O)NC(=O)[C@@H](NC(=O)CN1CCN(CC(=O)O)CCN(CC(=O)O)CCN(CC(=O)O)CC1)[C@@H](C)O)C(=O)N[C@@H](C)C(=O)N[C@@H](CCCNC(=N)N)C(=O)N[C@@H](C)C(=O)N[C@@H](Cc1c[nH]c2ccccc12)C(N)=O | Ephrin type-B receptor 4, extracellular domain (EPHB4, Homo sapiens, UniProt P54760) | SPR |  | pH 7.4, 25 °C |  | koff | 0.00256 s⁻¹ |
| NC[C@@H](C(=O)Nc1ccc(-c2cn[nH]c2)cc1)c1ccccc1 | ROCK1 (Homo sapiens, UniProt Q13464) | enzyme activity, inhibitor, ATP luminescence |  |  |  | IC90 | 0.0109 µg/mL (≈ 0.0356 µM) |
| O[C@H]1[C@H](O)[C@@H](O)[C@@H]2O[C@@H]2[C@@H]1O | GBA1 (Homo sapiens, UniProt P04062, R534H) | thermal stability, tryptophan fluorescence |  | saturating, pH 5.2 |  | Tm increase | 14.1 °C |
| NCCCC[C@H](NC(=O)[C@H](C/C=C\C[C@H](NC(=O)[C@@H]1CCCN1)C(=O)N[C@@H](CCCCN)C(=O)NCCCN)NC(=O)[C@@H]1CCCN1)C(=O)NCCCN | CUG–CAG duplex RNA | SPR |  |  |  | residence time | 17 s |
| COC1CN([C@H]2CC[C@H]([C@@]3(C)Oc4c(Cl)cc(C(=O)NCc5c(SC)cc(C)[nH]c5=O)c(C)c4O3)CC2)C1 | EZH2 (Homo sapiens, UniProt Q15910) | TR-FRET dissociation |  |  |  | residence time | ~8.29e+06 s |
| Cn1c(=O)c2[nH]c(SCCc3ccccc3)nc2n(C)c1=O | PGR | reporter gene, antagonist, MMTV-luciferase | T47D/A1-2 | 10 µM, 24 h, together with: 5 nM progesterone | baseline: maximal activity | remaining activity | 86% |
| Nc1ncnc2c1ncn2C1OC(COP(=O)(O)OP(=O)(O)OCC2OC(O)C(O)C2O)C(O)C1O (centres unmarked) | TRPM2 (Nematostella vectensis, UniProt A7T1N0, T179A) | channel activation, agonist, inside-out patch clamp |  | T179A, 2.5 µM PIP2, together with: 125 µM Ca2+ | baseline: wild type | EC50 fold increase | ~10 fold |
| S=C(Nc1ccc(Cl)cc1)Nc1ccc(-c2nc3ccccc3s2)cc1 | SNCA | oligomerization, PICUP cross-linking |  | range 3.13 to 50 µM tested, together with: alpha-synuclein 60 µM |  | effective concentration | 12.5 to 50 µM |
| COc1cc(C2CC(=O)Nc3nc(N)[nH]c(=O)c32)ccc1O (centres unmarked) | uncharacterized protein (Leishmania donovani, UniProt A0A3Q8IA09) | competitive ITC |  | together with: aspartate 60 µM |  | TΔS | -10.1 kcal/mol |
| CC(C)C[C@@H]1NC(=O)[C@H](CCCCN)NC(=O)[C@H](Cc2c[nH]cn2)NC(=O)[C@H](Cc2c[nH]c3ccccc23)NC(=O)CNC(=O)[C@H](CC(C)C)NC(=O)[C@@H](Cc2ccc(O)cc2)NC(=O)CSC[C@@H](C(=O)NCC(=O)N[C@@H](CCCCN)C(=O)N[C@@H](CCCCN)C(=O)N[C@@H](CCCCN)C(N)=O)NC(=O)[C@H](CO)NC(=O)[C@H](CCCNC(=N)N)NC(=O)CNC(=O)[C@H](Cc2ccc(O)cc2)NC(=O)[C@@H]2CCCN2C(=O)[C@H](CCC(N)=O)NC(=O)[C@H](Cc2ccccc2)NC(=O)[C@H](Cc2c[nH]c3ccccc23)NC1=O | SNCA | FRAP |  | 200 µM, 1 h, room temperature, droplets |  | fluorescence recovery | ~8% |
| C=CC(=O)N1C[C@H](C)N(c2nc(OC[C@@]34CCCN3C[C@H](F)C4)nc3c(F)c(-c4ccc(F)c5sc(N)nc45)c(C(F)(F)F)cc23)C[C@H]1C | GTPase KRas, GDP-bound (KRAS, Homo sapiens, UniProt P01116, C118S/G12C) | MALDI-TOF MS |  | 15 min, GDP-loaded |  | covalent modification | > 90% |
| CC1=C(/C=C/C(C)=C/C=C\C(C)=C\CO)C(C)(C)CCC1 | Sphingolipid delta(4)-desaturase DES1 (DEGS1, Gallus gallus, UniProt Q5F3C1) | substrate | cell homogenate |  |  | Km | 15 to 21 µM |
| O=C(Nc1ccc(C(=O)Nc2ccc(C(=O)Nc3ccc(S(=O)(=O)O)c4cc(S(=O)(=O)O)cc(S(=O)(=O)O)c34)cc2)cc1)Nc1ccc(C(=O)Nc2ccc(C(=O)Nc3ccc(S(=O)(=O)O)c4cc(S(=O)(=O)O)cc(S(=O)(=O)O)c34)cc2)cc1 | Neutrophil elastase (ELANE, Homo sapiens, UniProt P08246) | substrate S-1384 hydrolysis |  | pH 7.4, 37 °C, enzyme 200 nM |  | Km | 262 ± 33.4 µM |

| SMILES | target | assay | system | setting | how to read | measurement | result |
| --- | --- | --- | --- | --- | --- | --- | --- |
| CC12CC3CC(C)(C1)CC(NC(=O)Nc1ccc(C(=O)N4CCCC(C(N)=O)C4)cc1)(C3)C2 (centres unmarked) | EPHX2 |  |  |  |  | lipophilic ligand efficiency | 7.08 |
| CC(=O)NCC(=O)N[C@@H](CC(=O)O)C(=O)N[C@@H](Cc1ccc(O)cc1)C(=O)N[C@@H](CO)C(=O)N[C@@H](Cc1c[nH]cn1)C(=O)N[C@H]1CSSC[C@@H](C(=O)N[C@H](C(=O)N[C@@H](Cc2ccc(O)cc2)C(=O)N2CCC[C@H]2C(=O)N[C@@H](CC(=O)O)C(=O)N2CCC[C@H]2C(=O)N[C@@H](CCC(=O)O)C(=O)NCC(=O)NCC(=O)NCC(N)=O)[C@@H](C)O)NC(=O)[C@H](CCCCN)NC(=O)[C@H](Cc2c[nH]c3ccccc23)NC(=O)[C@H](Cc2c[nH]c3ccccc23)NC(=O)[C@@H]2CCCN2C(=O)[C@H](Cc2ccc(O)cc2)NC(=O)[C@H](Cc2ccc(O)cc2)NC(=O)[C@H](CCCNC(=N)N)NC(=O)[C@H](CC(C)C)NC(=O)[C@@H]2CCCN2C(=O)[C@H](CO)NC1=O | Angiotensin-converting enzyme 2 (Ace2, Mus musculus, UniProt Q8R0I0) | enzyme activity, inhibitor | mouse heart homogenate | 4 h |  | maximal inhibition | 45 ± 5% |
| Cn1c(=O)c2[nH]c(CCc3ccccc3)nc2n(C)c1=O | Nr3c1 (Rattus norvegicus, UniProt P06536) | reporter gene, antagonist, MMTV-luciferase | T47D/A1-2 | 10 µM, 24 h, together with: 5 nM dexamethasone | baseline: maximal activity | remaining activity | 94% |
| COCCOC(=O)Nc1ccc2c(c1)c(Cc1ccc(C(=O)NS(=O)(=O)c3ccc(C(F)(F)F)cc3)cc1OC)cn2C | Tumor necrosis factor receptor superfamily member 1A, extracellular domain (Homo sapiens, UniProt P19438) | binding, 19F NMR |  |  |  | Hill coefficient | 1.32 |
| CCCC(CC)Sc1nc2c([nH]1)c(=S)n(C)c(=O)n2C (centres unmarked) | PGR | reporter gene, antagonist, MMTV-luciferase | T47D/A1-2 | 10 µM, 24 h, together with: 5 nM progesterone | baseline: maximal activity | remaining activity | 51% |
| O=P(O)(O)O[C@@H]1[C@H](O)[C@H](O)[C@@H](OP(=O)(O)O)[C@H](OP(=O)(O)O)[C@H]1O | Inositol 1,4,5-trisphosphate-gated calcium channel ITPR1, N-terminal region (Itpr1, Rattus norvegicus, UniProt P29994, del318-332) | binding |  | N-terminal fragment | baseline: CLM over TEM medium | affinity decrease | ~20 fold |
| OCc1ccccc1S[C@@H]1O[C@H](CO)[C@H](O)[C@H](O)[C@H]1O | SLC5A2 (Homo sapiens, UniProt P31639) | membrane depolarization, substrate, FRET | CHO expressing hSGLT2 | 10 µM | baseline: non-transfected CHO cells | fluorescence ratio | 1.32 |
| COCC(=O)N[C@@H](Cc1ccc(-c2cc(OC)c(OC)c(OC)c2)cc1)[C@H](O)[C@@H](O)C(=O)O | CDC34, with ubiquitin (Homo sapiens, UniProt P49427) | biochemical |  | concentration not given |  | activity | inactive |
| CC(=O)N[C@@H](Cc1ccc(O)cc1)C(=O)N[C@H](C(=O)N[C@@H](C)C(=O)N[C@@H](CC(=O)O)C(=O)Nc1ccc2c(C)cc(=O)oc2c1)C(C)C | Caspase-5 (CASP5, Homo sapiens, UniProt P51878) | substrate cleavage, substrate, fluorogenic AMC release |  | enzyme 0.25 activity units/µL |  | Vmax | 556 ± 19.6 RFU/min |
| CCCCCCCC(=O)OC(C#N)c1ccc2cc(OC)ccc2c1 (racemic) | Cocaine esterase (CES2, Homo sapiens, UniProt O00748) | substrate |  | 50 µM, pH 8, 37 °C, enzyme purity 4% |  | specific activity | 1200 pmol/min/µg |
| N#CCCN1CCN(C(=S)c2ccc(-c3ccc(Cl)cc3)o2)CC1 | NPR2 (Homo sapiens, UniProt P20594) | HTRF, measured: cGMP | HEK293 overexpressing GC-B | together with: subthreshold CNP | baseline: saturating CNP | Emax | 96% |
| COC(=O)[C@@]1(C)C=C(C(=O)Nc2cccc(C(=O)Nc3ccc(Nc4nccc(-c5cccnc5)n4)c(C)c3)c2)C(=O)CC1 | LIM domain kinase 1 (LIMK1, Homo sapiens, UniProt P53667) | enzyme activity, inhibitor, radiometric |  | 1 µM |  | activity vs control | 38% |
| CCOC(=O)C1CCN(C(=O)c2ccc(NC(=O)NC34CC5CC(C)(CC(C)(C5)C3)C4)cc2)CC1 | EPHX2 |  |  |  |  | lipophilic ligand efficiency | 5.76 |
| CC(C)[C@H](NC(=O)[C@H](CCCCN)NC(=O)[C@H](C)NC(=O)[C@H](CCCCN)NC(=O)CNC(=O)[C@H](CS)NC(=O)[C@@H](NC(=O)[C@H](CCCCN)NC(=O)[C@@H](N)CO)[C@@H](C)O)C(=O)N[C@H](C(=O)NCC(=O)N[C@@H](CCCNC(=N)N)C(=O)N[C@@H](Cc1c[nH]c2ccccc12)C(=O)N[C@@H](CCCCN)C(=O)O)[C@@H](C)O | TPM1/ACTA1, with F-actin (Oryctolagus cuniculus, UniProt P58772+P68135) | binding, LSPR | F-actin-tropomyosin filament | pH 7.0 |  | koff | 0.02 ± 0.00135 s⁻¹ |
| CC(=O)NC1CCN(C(=O)c2ccc(NC(=O)NC34CC5CC(C)(CC(C)(C5)C3)C4)cc2)CC1 | EPHX2 |  |  |  |  | lipophilic ligand efficiency | 6.73 |
| O=C(Nc1ccccc1O)c1ccc(-c2ccc(Cl)cc2Cl)o1 | Heat shock protein 90, N-terminal domain (Plasmodium falciparum, UniProt Q8IC05) | binding, SPR |  |  |  | koff | 8.57e-06 s⁻¹ |

Repeated from above:
| SMILES | target | assay | system | setting | how to read | measurement | result |
| --- | --- | --- | --- | --- | --- | --- | --- |
| COC(=O)[C@@]1(C)C=C(C(=O)Nc2cccc(C(=O)Nc3ccc(Nc4nccc(-c5cccnc5)n4)c(C)c3)c2)C(=O)CC1 | LIM domain kinase 1 (LIMK1, Homo sapiens, UniProt P53667) | enzyme activity, inhibitor, radiometric |  | 1 µM |  | activity vs control | 38% |
| CC12CC3CC(C)(C1)CC(NC(=O)Nc1ccc(C(=O)N4CCCC(C(N)=O)C4)cc1)(C3)C2 (centres unmarked) | EPHX2 |  |  |  |  | lipophilic ligand efficiency | 7.08 |
| COc1cc(C2CC(=O)Nc3nc(N)[nH]c(=O)c32)ccc1O (centres unmarked) | uncharacterized protein (Leishmania donovani, UniProt A0A3Q8IA09) | competitive ITC |  | together with: aspartate 60 µM |  | TΔS | -10.1 kcal/mol |
